Assay results gathered from unrelated publications.
Lines come from different studies, so protocols differ. ± gives the spread as reported.
UniProt P18089, sequence (whole entry, looked up): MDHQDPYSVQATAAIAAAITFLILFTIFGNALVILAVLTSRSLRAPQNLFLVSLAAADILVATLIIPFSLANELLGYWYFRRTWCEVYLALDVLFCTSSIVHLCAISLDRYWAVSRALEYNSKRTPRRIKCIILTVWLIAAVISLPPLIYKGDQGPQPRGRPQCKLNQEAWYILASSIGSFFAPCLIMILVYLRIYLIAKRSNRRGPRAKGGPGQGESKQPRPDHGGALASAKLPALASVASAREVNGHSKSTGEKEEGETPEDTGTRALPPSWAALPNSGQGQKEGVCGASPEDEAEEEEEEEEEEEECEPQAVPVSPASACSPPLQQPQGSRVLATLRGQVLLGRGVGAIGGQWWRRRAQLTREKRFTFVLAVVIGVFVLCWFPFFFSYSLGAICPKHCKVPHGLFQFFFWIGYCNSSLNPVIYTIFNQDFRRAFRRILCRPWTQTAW
UniProt P08581, sequence (whole entry, unmodified, looked up): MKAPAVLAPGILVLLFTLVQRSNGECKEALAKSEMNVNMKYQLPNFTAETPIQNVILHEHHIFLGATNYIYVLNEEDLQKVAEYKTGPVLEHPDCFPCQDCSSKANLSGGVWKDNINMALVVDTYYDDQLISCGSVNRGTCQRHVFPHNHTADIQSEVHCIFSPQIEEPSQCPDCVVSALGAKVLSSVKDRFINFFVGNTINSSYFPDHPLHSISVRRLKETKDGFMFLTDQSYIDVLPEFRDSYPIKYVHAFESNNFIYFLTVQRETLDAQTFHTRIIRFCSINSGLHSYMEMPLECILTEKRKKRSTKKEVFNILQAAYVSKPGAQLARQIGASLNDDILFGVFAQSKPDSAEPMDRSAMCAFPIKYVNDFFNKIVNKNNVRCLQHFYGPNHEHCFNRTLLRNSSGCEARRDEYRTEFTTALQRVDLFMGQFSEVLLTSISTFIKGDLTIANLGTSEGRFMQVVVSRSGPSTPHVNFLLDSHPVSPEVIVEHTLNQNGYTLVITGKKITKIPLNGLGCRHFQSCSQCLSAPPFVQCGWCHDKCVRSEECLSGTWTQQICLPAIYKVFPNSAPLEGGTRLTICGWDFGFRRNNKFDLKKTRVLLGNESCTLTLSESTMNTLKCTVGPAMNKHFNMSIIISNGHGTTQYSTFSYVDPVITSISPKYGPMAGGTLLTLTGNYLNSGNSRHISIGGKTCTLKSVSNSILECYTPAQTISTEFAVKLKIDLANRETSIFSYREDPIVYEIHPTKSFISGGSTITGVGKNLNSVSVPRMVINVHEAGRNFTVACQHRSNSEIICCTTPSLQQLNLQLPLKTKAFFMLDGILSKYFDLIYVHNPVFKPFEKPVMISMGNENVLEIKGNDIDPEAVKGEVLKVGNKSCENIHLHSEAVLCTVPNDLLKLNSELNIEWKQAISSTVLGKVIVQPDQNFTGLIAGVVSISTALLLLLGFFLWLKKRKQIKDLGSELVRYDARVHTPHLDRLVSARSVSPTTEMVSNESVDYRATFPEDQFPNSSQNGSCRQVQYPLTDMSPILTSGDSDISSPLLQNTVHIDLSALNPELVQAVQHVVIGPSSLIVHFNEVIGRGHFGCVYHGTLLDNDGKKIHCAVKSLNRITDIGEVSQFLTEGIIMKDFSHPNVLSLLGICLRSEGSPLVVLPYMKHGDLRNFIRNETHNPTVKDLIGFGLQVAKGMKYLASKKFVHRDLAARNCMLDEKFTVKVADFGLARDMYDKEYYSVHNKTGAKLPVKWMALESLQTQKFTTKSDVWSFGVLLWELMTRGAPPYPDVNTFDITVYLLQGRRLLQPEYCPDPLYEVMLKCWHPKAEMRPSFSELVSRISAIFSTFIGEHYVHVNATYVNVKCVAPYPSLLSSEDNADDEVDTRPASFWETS

O=C(CCc1ccc(Br)cc1)N[C@H]1CCOC1=O  IC50 (expR (Pectobacterium carotovorum, UniProt Q4KS34)): 1.65 µM
OC1(c2ccc(Cl)cc2)c2ccccc2C2=NCCN21 (stereo not drawn)  Kd (snf (Aquifex aeolicus, UniProt O67854, G24D/I359G/N21Y/S256G/T254S/Y265F); saturation binding): 0.318 ± 0.01 µM
COC(=O)Cc1ccccc1  Ki (uncharacterized protein (Bradysia odoriphaga, UniProt A0A2S0X9G4); binding, competitive fluorescence displacement): > 50 µM
C#CC[C@@H](N)C(=O)N[C@H](CO)C(=O)N[C@@H](C(=O)N[C@H](CO)C(=O)N[C@H](CCC(=O)O)C(=O)N[C@@H](C(=O)N[C@H](CCC(N)=O)C(=O)N[C@H](CC(C)C)C(=O)N[C@H](CCSC)C(=O)N[C@H](Cc1c[nH]cn1)C(=O)N[C@H](CC(N)=O)C(=O)N[C@H](CC(C)C)C(=O)NCC(=O)N[C@H](CCCCN)C(=O)N[C@H](Cc1c[nH]cn1)C(=O)N[C@H](CC(C)C)C(=O)NCC(=O)N[C@H](CO)C(=O)N[C@H](CCSC)C(=O)N[C@H](C)C(=O)N[C@H](CCCNC(=N)N)C(=O)N[C@@H](C(=O)N[C@H](Cc1ccc(O)cc1)C(=O)N[C@H](Cc1ccccc1)C(=O)N[C@H](CC(C)C)C(=O)N[C@H](CCCNC(=N)N)C(=O)N[C@H](Cc1ccccc1)C(=O)N[C@H](CCCCN)C(=O)N[C@H](CC(C)C)C(=O)N[C@H](CCC(N)=O)C(=O)N[C@H](CC(C)C)C(=O)N[C@@H](C(N)=O)C(C)C)C(C)C)[C@H](C)CC)C(C)C  Ki (hemagglutinin influenza A/California/07/2009 H1N1): 17 µM
Nc1ncnc2c1ncn2[C@@H]1O[C@H](COP(=O)(O)OP(=O)(O)OP(=O)(O)O)[C@@H](O)[C@H]1O  Kd (MET (Homo sapiens, UniProt P08581, C1091S/C1146S/K1232C); binding): 156 ± 6 µM
CC1=NNC(=O)N(/N=C/c2cccnc2)C1  Ki (Nan-Iav channel Halyomorpha halys; binding): 0.0285 µM
C#CC[C@@H](N)C(=O)N[C@H](CO)C(=O)N[C@@H](C(=O)N[C@H](CO)C(=O)N[C@H](CCC(=O)O)C(=O)N[C@@H](C(=O)N[C@H](CCC(N)=O)C(=O)N[C@H](CC(C)C)C(=O)N[C@H](CCSC)C(=O)N[C@H](Cc1c[nH]cn1)C(=O)N[C@H](CC(N)=O)C(=O)N[C@H](CC(C)C)C(=O)NCC(=O)N[C@H](CCCCN)C(=O)N[C@H](Cc1c[nH]cn1)C(=O)N[C@H](CC(C)C)C(=O)N[C@H](CC(N)=O)C(=O)N[C@H](CO)C(=O)N[C@H](CCSC)C(=O)N[C@H](CCC(=O)O)C(=O)N[C@H](CCCNC(=N)N)C(=O)N[C@@H](C(=O)N[C@H](Cc1ccc(O)cc1)C(=O)N[C@H](Cc1c[nH]c2ccccc12)C(=O)N[C@H](CC(C)C)C(=O)N[C@H](CCCNC(=N)N)C(=O)N[C@H](Cc1ccccc1)C(=O)N[C@H](CCCCN)C(=O)N[C@H](CC(C)C)C(=O)N[C@H](CCC(N)=O)C(=O)N[C@H](C)C(=O)N[C@@H](C(N)=O)C(C)C)C(C)C)[C@H](C)CC)C(C)C  Ki (hemagglutinin influenza A/California/07/2009 H1N1): 8 µM
COc1ccc(CCN)cc1OC  IC50 (Gag polyprotein, nucleocapsid protein p7 (gag, Human immunodeficiency virus type 1 group M subtype B, UniProt P04591); NCp7-RNA binding, AlphaScreen; HIV-1; with: 25 nM NCp7, 12.5 nM RNA): 15.7 µM
Brc1ccc2c(c1)C(c1ccccn1)=NCc1c(-c3cnco3)ncn1-2  Ki (ADRA2B (Homo sapiens, UniProt P18089); rat): 0.834 ± 0.341 µM

A few entries again:
COC(=O)Cc1ccccc1  Ki (uncharacterized protein (Bradysia odoriphaga, UniProt A0A2S0X9G4); binding, competitive fluorescence displacement): > 50 µM
